Measurements of several laboratories.
A part holds a random share of what one study measured.

Set 1 — cell line: HEK-293T; read-out: pseudovirus infection; organism: VSV pseudotyped with SARS-CoV-2 spike; concentration: 10 µM; time: 16 h; relative to: vehicle-treated
SMILES	GFP-positive cells
C[C@]12CCC3=C4CCC(=O)C=C4CC[C@H]3[C@@H]1CC[C@@]2(O)CC#N	94.9%
C[C@@H](O[C@H]1OCCN(Cc2n[nH]c(=O)[nH]2)[C@H]1c1ccc(F)cc1)c1cc(C(F)(F)F)cc(C(F)(F)F)c1	76.6%
CO[C@@]1(NC(=O)Cc2cccs2)C(=O)N2C(C(=O)O)=C(COC(N)=O)CS[C@@H]21	78.4%
CO[C@H]1C(=O)[C@]2(C)[C@@H](OC)C[C@H]3OC[C@@]3(OC(C)=O)[C@H]2[C@H](OC(=O)c2ccccc2)[C@]2(O)C[C@H](OC(=O)[C@H](O)[C@@H](NC(=O)OC(C)(C)C)c3ccccc3)C(C)=C1C2(C)C	79.4%

Set 2 — technique: universal PBM; form: double-stranded DNA, one strand shown; matrix: in vitro; concentration: 600 nM; reading: higher = stronger binding
Target: Sal-like protein 4, full length isoform A (SALL4, Homo sapiens, UniProt Q9UJQ4, residues 1-1053)
UniProt Q9UJQ4, sequence (whole entry, looked up): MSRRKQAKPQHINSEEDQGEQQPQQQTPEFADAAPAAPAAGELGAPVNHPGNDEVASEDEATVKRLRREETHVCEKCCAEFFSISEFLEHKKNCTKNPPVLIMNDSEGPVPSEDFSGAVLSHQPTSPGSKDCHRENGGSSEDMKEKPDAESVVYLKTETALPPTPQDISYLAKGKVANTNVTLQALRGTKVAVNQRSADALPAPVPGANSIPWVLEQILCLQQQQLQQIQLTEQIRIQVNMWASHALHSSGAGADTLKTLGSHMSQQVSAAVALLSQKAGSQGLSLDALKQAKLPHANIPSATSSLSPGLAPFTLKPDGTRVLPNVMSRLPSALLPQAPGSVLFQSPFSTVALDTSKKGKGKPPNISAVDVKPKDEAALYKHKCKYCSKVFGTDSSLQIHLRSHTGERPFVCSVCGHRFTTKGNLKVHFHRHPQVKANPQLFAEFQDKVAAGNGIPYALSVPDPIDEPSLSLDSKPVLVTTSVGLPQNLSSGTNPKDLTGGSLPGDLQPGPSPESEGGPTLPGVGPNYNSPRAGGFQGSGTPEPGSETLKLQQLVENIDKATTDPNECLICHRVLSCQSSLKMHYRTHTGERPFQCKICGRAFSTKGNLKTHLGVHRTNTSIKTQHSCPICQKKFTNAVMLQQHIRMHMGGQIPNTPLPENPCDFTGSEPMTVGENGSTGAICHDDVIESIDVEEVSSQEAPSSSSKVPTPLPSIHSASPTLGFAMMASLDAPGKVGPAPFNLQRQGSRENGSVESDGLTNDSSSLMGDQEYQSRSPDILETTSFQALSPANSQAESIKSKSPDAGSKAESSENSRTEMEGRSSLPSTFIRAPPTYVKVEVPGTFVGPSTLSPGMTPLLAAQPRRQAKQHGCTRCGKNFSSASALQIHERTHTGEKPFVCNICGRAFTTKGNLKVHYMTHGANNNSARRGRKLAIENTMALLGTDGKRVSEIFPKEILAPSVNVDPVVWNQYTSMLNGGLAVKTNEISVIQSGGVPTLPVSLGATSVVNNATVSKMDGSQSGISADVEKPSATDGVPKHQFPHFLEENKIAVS
Setting: 8-mer, flanks averaged, mean of replicates
Strand	E-score
CACTCCTA	-0.0141
AAATAAGT	0.286
AGAGTTTA	0.226
CGGTTCTA	-0.0625
ATCCGGAT	-0.262
CGACGAAA	0.0763
GCGGCTGA	-0.284
TTACTAAA	0.303

Set 3 — technique: RNA Bind-n-Seq; form: RNA; matrix: in vitro; concentration: 365 nM; relative to: no-protein control; reading: higher = stronger binding
Target: RNA binding protein fox-1 homolog 2, RRM domain, GST-SBP tag (RBFOX2, Homo sapiens, UniProt O43251-10, residues 100-194)
Setting: natural RNA segment, single round, ends assumed
Shared flanks, not repeated: GGGAGUUCUACAGUCCGACGAUC … UGGAAUUCUCGGGUGCCAA
Construct (chain): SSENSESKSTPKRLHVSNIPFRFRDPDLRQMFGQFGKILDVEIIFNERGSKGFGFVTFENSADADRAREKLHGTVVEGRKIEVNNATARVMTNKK
Strand	RBNS enrichment (R)
CUAAUAUUCACAUGUUCUAAUACUUUGUUUAUUGUAAAACAGCUAAAUUUGGAGAUACGUAAAGCCUUGUUUUCUCUGUGUGGUUCAGCUACUUUCCAUUUGGUAUUACA	0.825
GGUCCUACCUAAAUGUCCAGCAGGACAUUAGACAGUCGUACAGGGUACAGAAUAAUUCUUCGUUGUGUGGCACUAACCCACACACUGCAGGACAUCGUUCUCCCUGGCUG	0.214
CACCUGGACUUGGCUUCCUGAGAAAGAUUGUUUUUUAACCUUUGGCUUUCUUCAUUCAGUGUGCCAUCUUUGAUCUUACAGCGGUGCCUGUGGAAGGACAGGGUGAGAAA	0.453
GUGGGUCCUACAGGUGCUUCCAUGCUCUGGUUAGACUGUCCUGUCUGAGGACACAGCCAGUUUCUUCAGCACCUCCACAAACUGCACCCCGUCUCUGUCCAUGCACCUCG	0.561
UUCUAGGUUCCCUCCUCCCCCUACCCCAUCUCCUACCUCCACAGUACAGACUGUCCCCAACUUAACAGUGGUUCAACUUAAACCAUGUUUCAACUUUACAAUUGGUCUGU	0.83
UCAUACCUGGGUGGAGAGAGGGAGACAAAUAGCCAUAAACUUCAUCCUGGAGAACAAGUUACCAUGCAAGGAGUUGACAUCAGUUGUUAAGUGAGGCCCAUUCUUGUUUU	0.251
AUAUAAUUAUAAGAGGAAGUGUAGUGAAUUGUACAGCUGUUGUAAUAAUGACCUAUUUCUAUAAAAAAAUAAAAUUGUACGGAUUAUGUGUAAAUUAUUUUGUAUCUGAG	0.596
CCUUUUGAAAAGCUGUGUCGUGUUCCCUGUGAAACUGAGCAGGUGUGUGUUGGCGCGCUAAGUGCCACAUGCUUGUGUGUAGAGGAGGAGGUGGCCCUGCCGGCUCCGCG	0.246

Set 4 — technique: RNA Bind-n-Seq; form: RNA; matrix: in vitro; concentration: 1 µM; setting: whole 134-nt RNA, ends assumed; with: 150 mM KCl; relative to: input library; reading: higher = stronger binding
Target: Ras GTPase-activating protein-binding protein 1, RRM domain (G3BP1, Homo sapiens, UniProt Q13283)
UniProt Q13283, sequence (whole entry, looked up): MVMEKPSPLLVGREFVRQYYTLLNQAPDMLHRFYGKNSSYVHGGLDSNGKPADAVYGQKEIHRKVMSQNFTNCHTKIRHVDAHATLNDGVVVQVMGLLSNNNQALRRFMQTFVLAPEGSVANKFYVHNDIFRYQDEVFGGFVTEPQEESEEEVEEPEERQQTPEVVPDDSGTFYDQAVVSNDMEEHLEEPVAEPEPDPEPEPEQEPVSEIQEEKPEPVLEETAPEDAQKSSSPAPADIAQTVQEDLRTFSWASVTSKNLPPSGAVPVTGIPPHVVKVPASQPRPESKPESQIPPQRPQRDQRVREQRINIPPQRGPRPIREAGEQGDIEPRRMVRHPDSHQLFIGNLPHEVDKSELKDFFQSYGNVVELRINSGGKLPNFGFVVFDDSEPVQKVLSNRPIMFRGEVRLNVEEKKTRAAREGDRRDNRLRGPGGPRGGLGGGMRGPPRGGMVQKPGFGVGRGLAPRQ
Shared flanks, not repeated: GGGAGUUCUACAGUCCGACGAUC … UGGAAUUCUCGGGUGUCAAGG
Strand	log2 enrichment
UCGGAGGUGGAUUUUGUUUAUUUUUUUAGCUCAUUUCCAGGGGUGGGAAUUUUUUUUUAAUAUGUGUCAUGAAUAAAGUUGUUUUUGAAA	2.2
UGGGAGGUGGAUUUUGUUUAUUUUUUUAGCUCAUUUCCAGGGGUGGGAAUUUUUUUUUACUAUGUGUCAUGAAUAAAGUUGUUUUUGAAA	1.94
ACCAUGUAGGUGGGCAUCUUUGGGAAGUGGGGCAAGGGGGGGAUAGGGAGGGGGGUAACACUUUGGGAACAGGUGGUCCCAGGUCGUUUC	-0.259
GUCCUGUGCUACACAUCGUAUGUACCGAAUCGGGGAAAAAGGGAAAAAGGAAAAAGGGAAAGUAUUAUGUUACGCCGUUCGGAUCUGCAC	-0.02
AUGUUCUUGAAUACUUAGCAAACAUACCAGCAUCCCAAAGUCACCAAGAUAAACCCUCCUACUCCAACAUCACAUGAUCUUCUAAUUCUA	-0.0878

Set 5 — read-out: enzyme activity; mode: inhibitor; concentration: 20 µM; setting: hit confirmation
Target: Replicase polyprotein 1ab, main protease (rep, Severe acute respiratory syndrome coronavirus 2, UniProt P0DTD1)
SMILES	inhibition
O=C1c2cccc(O)c2C(=O)c2c(O)cc(CO)cc21	49.2%
O=C1C(CC[S+]([O-])c2ccccc2)C(=O)N(c2ccccc2)N1c1ccccc1 (stereo not drawn)	2.2%
O=C1C(Cl)=C(Cl)C(=O)C(Cl)=C1Cl	110%
CC1=NN(c2ccc(C)c(C)c2)C(=O)/C1=N/Nc1cccc(-c2cccc(C(=O)O)c2)c1O	2%

Set 6 — read-out: enzyme activity; mode: inhibitor; concentration: 20 µM
Target: Replicase polyprotein 1ab, polymerase (rep, Severe acute respiratory syndrome coronavirus 2, UniProt P0DTD1)
SMILES	inhibition [%]
Cc1cc(C(=O)NNCc2ccccc2)no1	-1.23
CC(=O)OCC(=O)[C@@]12N=C(C)O[C@@H]1C[C@H]1[C@@H]3CCC4=CC(=O)C=C[C@]4(C)[C@H]3[C@@H](O)C[C@@]12C	-2.83
COc1ccc(C2C(=O)c3ccccc3C2=O)cc1	4.62
O=C1CCCN1CC#CCN1CCCC1	-3.96
c1ccc2c(Cc3c[nH]c4ccccc34)c[nH]c2c1	-1.79
CC1=C(O)C(=O)[C@@H]2O[C@@H]2C1=O	2.01
C=CC(=O)Nc1ccc2ncnc(Nc3ccc(OCc4cccc(F)c4)c(Cl)c3)c2c1	4.3
COC(F)(F)C(Cl)Cl	0.83
CC(=O)Oc1cc(C(F)(F)F)ccc1C(=O)O	-7.09
CN(C)CCC(c1ccc(Br)cc1)c1ccccn1 (stereo not drawn)	-7.76
O=C(Cn1ccnc1[N+](=O)[O-])NCc1ccccc1	-0.05
NC(=O)NS(=O)(=O)c1ccc(N)cc1	1.57
Nc1ncc(Cc2ccc(Br)cc2)s1	-3.66
Cc1ccc2nc(NCCN)c3ncc(C)n3c2c1	6.76
C[C@H]1[C@H](C)CC[C@]2(C(=O)O)CC[C@]3(C)C(=CC[C@@H]4[C@@]5(C)CC[C@H](O)C(C)(C)[C@@H]5CC[C@]43C)[C@H]12	1.63
CN1C(=O)N(c2cc(Cl)cc(Cl)c2)C(=O)[C@@]1(C)Cc1ccc(Br)cc1	3.79
Cc1cccc(C)c1NC1=NCCCS1	22.6
Nc1[nH]nc2nnc(-c3c(-c4ccccc4)nn4ccccc34)cc12	10.6
OC(c1ccccc1)(c1ccccc1)C12CC[N+](CCOCc3ccccc3)(CC1)CC2	3.76
C[C@H](N)[C@H](O)c1cccc(O)c1	0.48
C[C@@](Cc1ccc(O)c(O)c1)(NN)C(=O)O	-2.27
COCCOc1ccc(N2CCN(CCn3ncc4c3nc(N)n3nc(-c5ccco5)nc43)CC2)cc1	-1.65
CC(C)Cn1cnc2c1c(=O)n(C)c(=O)n2C	-4.62
Cc1ccccc1C(=O)c1ccc(Nc2ccc(Br)cc2N)cc1Cl	2.96
CC(C)(C)c1cc(C=C(C#N)C#N)cc(Br)c1O	-0.82

Repeated from above (set 3):
Strand	RBNS enrichment (R)
CACCUGGACUUGGCUUCCUGAGAAAGAUUGUUUUUUAACCUUUGGCUUUCUUCAUUCAGUGUGCCAUCUUUGAUCUUACAGCGGUGCCUGUGGAAGGACAGGGUGAGAAA	0.453
GUGGGUCCUACAGGUGCUUCCAUGCUCUGGUUAGACUGUCCUGUCUGAGGACACAGCCAGUUUCUUCAGCACCUCCACAAACUGCACCCCGUCUCUGUCCAUGCACCUCG	0.561
AUAUAAUUAUAAGAGGAAGUGUAGUGAAUUGUACAGCUGUUGUAAUAAUGACCUAUUUCUAUAAAAAAAUAAAAUUGUACGGAUUAUGUGUAAAUUAUUUUGUAUCUGAG	0.596
CCUUUUGAAAAGCUGUGUCGUGUUCCCUGUGAAACUGAGCAGGUGUGUGUUGGCGCGCUAAGUGCCACAUGCUUGUGUGUAGAGGAGGAGGUGGCCCUGCCGGCUCCGCG	0.246
UCAUACCUGGGUGGAGAGAGGGAGACAAAUAGCCAUAAACUUCAUCCUGGAGAACAAGUUACCAUGCAAGGAGUUGACAUCAGUUGUUAAGUGAGGCCCAUUCUUGUUUU	0.251
